Published values of several laboratories.
Parts stem from different laboratories: compare values within a part only. Substitutions count along the parent as printed.

Study 1
Target: RING finger protein unkempt homolog, zinc fingers 1-6, GST-SBP tag (UNK, Homo sapiens, UniProt Q9C0B0, residues 30-357)
Chain of UniProt Q9C0B0 (30-357, looked up): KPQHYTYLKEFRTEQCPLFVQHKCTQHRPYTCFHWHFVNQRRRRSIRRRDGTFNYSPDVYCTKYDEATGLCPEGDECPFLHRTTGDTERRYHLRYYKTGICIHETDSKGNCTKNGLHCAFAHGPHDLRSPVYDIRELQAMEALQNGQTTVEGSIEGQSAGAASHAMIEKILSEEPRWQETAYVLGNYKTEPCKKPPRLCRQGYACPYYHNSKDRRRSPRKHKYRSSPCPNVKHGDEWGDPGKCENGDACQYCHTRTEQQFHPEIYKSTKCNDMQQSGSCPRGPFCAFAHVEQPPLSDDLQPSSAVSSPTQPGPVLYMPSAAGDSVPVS
Method: RNA Bind-n-Seq
Molecule type: RNA
Sample: in vitro
Tested at: not given
Notes: RNA with constant flanks, human and mouse sites, ends assumed
Relative to: input RNA pool
Reading: higher = stronger binding
Endpoint: bound/input enrichment
Strand = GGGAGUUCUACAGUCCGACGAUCGAACAGAUUGUGGAUUUCUUAAAGAAGAAGCAUGAUUUUGUAGACCUUAUUAUAAAGCACAUAGGAACUUCUGCUAUCAUGGAUUUGUUGCUCAGGCUCCUGACGUGUAUCGAACCUCCACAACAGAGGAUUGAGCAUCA; value = 0.379 ratio
Strand = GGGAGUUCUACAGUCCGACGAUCUGUCUGCCUCAUUCUAAAAUUUACACAGUAGACCAUUUGUCAUCCAUGCUGUCCCACAAAUAGUUUUUUGUUUACGAUUUAUGACAGGUUUAUGUUACUUCUAUUUGAAUUUCUAUAUUUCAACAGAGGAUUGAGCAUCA; value = 8.48 ratio
Strand = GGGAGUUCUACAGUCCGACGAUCUGGGAUAGCCAAGCAAAAUCAGUAAUUAUUUUAAAAUGAACAUAUGUAUUUUUAUUAACUUUUAGUUAAAUACAGAUUUUACAACGAGGUCAGCAUAAGCCUAAAUCUAUAUAGAGGGCUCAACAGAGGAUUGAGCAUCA; value = 3.06 ratio
Strand = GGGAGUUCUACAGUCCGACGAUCAACGUUGACGUGUUAUAGAUAAGCCUUGUCAUUCUGUAUCAAAAAUCUGUUGUCGUUUUCUAGUAACUUCAAAUUCCAUUACUCCAAAUGGCAUGGUUUUCCGGUUUGUAACCAUAACUACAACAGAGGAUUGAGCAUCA; value = 0.63 ratio
Strand = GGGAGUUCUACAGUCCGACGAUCUAAUAUGGGUUUUGACAAAUGUGUAAUGACAUUUGUCAACCGUUAUAGUAUUAUACAGAAUAAUUUCACUGCCUUAAAAAAUCCUCUGUGUUUUACUUAUUCAUCCCUCCCUCUCCUUUACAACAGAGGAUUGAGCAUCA; value = 2.55 ratio
Strand = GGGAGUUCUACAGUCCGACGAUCGAAGAUGAGAAAUACCUGCAGACAAUAAUGGAUGCUAAUGCACAGUCACAUAAACUUACUAUCUUUGAUGCCAGACAAAACAGCGUUGCUGAUACCAACAAGGCAAAGGGUGGUGGAUAUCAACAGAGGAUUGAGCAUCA; value = 0.314 ratio
Strand = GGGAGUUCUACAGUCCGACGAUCAACAGGAUCAGUUAACUAUUGCAUUUAUAUGUACCGUAGGCUUUGUAUUCAAAAAUUAUCUAUAGCUAAGUACACAAUAAGCAAAAACAAAAAGAAAAGAAAAUUUUUGUAGUAGCGUUUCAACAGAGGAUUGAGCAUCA; value = 1.17 ratio
Strand = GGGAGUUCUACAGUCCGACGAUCUACCUGCCUAGAAACUGAAAUUUUAAACUUAAUUCAGGUCUUAAUGCCUAAAUUUUCCAUGUGAUGUUUAUAGUCUGUAUUACUUCUCCAAAUAAUGAACUACCUGAUUCAUUGUCCCUUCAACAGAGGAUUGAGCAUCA; value = 3.86 ratio

Study 2
Target: Histone acetyltransferase KAT6A, winged helix 1, GST fusion (KAT6A, Homo sapiens, UniProt Q92794, residues 1-85)
Method: protein binding microarray
Molecule type: double-stranded DNA, one strand shown
Sample: in vitro
Tested at: not given
Notes: 8-mer, flanks averaged, mean of 2 arrays, mostly near background
Relative to: not given
Reading: higher = stronger binding
Endpoint: E-score
Residues (chain): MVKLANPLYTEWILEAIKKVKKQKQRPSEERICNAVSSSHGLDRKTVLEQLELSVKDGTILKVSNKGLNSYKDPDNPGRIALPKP
Strand = GTGGAATA; value = -0.035
Strand = AGGATCGG; value = -0.0376
Strand = AGGCACAA; value = -0.177
Strand = TCTACCCA; value = -0.0271
Strand = CTGGTATC; value = -0.16
Strand = AGAGCGTC; value = 0.0744
Strand = CGACTGAG; value = -0.147
Strand = ATGCGACC; value = 0.254
Strand = AAAGCAGA; value = -0.274
Strand = CTCTGTTA; value = -0.0629
Strand = CAGCTTGC; value = 0.0712
Strand = ATGGTCAA; value = -0.221

Study 3
Target: CCNB2, cyclin fold, Cln2 fusion (human)
Method: yeast growth competition, sequencing
Sample: yeast
Notes: weak parent motif
Relative to: not given
Reading: higher = stronger binding
Endpoint: normalised enrichment score
Starting sequence: SAMHD1 docking peptide (human); ASKSRVQLFKDDP
Variant = F9E; value = 0.0202
Variant = D12L; value = -0.103
Variant = D11A; value = 0.473
Variant = K3P; value = -0.599
Variant = V6T; value = 0.341
Variant = Q7W; value = 0.204

Mixed results
Molecule = PhoQ, residues 284 288 289 292 302 303 ASTSDA; target = PhoP, residues 12 14 15 18 19 QQAYL (Escherichia coli, UniProt P23836); test = Sort-seq, measured: YFP reporter; system = E. coli; conditions = PhoQ-PhoP variant library, with: 10 µM Mg2+; scale = relative to: high Mg2+ state, higher = stronger signaling; endpoint = fold induction; value = 14.9

A few entries again (study 2):
Strand = AGAGCGTC; value = 0.0744
Strand = ATGGTCAA; value = -0.221
Strand = CGACTGAG; value = -0.147
Strand = AAAGCAGA; value = -0.274
